Measurements collected from several papers.
Each line is one published result; not all experiments were run side by side. ± marks the error that the study gave.
Organism: Escherichia coli

CC[C@H](C)[C@H](NC(=O)[C@H](CCCCN)NC(=O)[C@H](CCCCN)NC(=O)[C@H](CC(C)C)NC(=O)[C@H](CCCCN)NC(=O)[C@H](CCC(=O)O)NC(=O)[C@H](CCCCN)NC(=O)[C@@H](NC(=O)[C@H](CCCCN)NC(=O)[C@H](CC(N)=O)NC(=O)[C@H](CCCNC(=N)N)NC(=O)[C@H](Cc1ccccc1)NC(=O)[C@H](CCCCN)NC(=O)[C@H](CCCNC(=N)N)NC(=O)[C@H](CC(C)C)NC(=O)[C@H](CCCNC(=N)N)NC(=O)[C@H](CCCCN)NC(=O)[C@H](CCCNC(=N)N)NC(=O)[C@@H](N)CC(C)C)[C@@H](C)CC)C(=O)NCC(=O)N[C@@H](CCC(N)=O)C(=O)N[C@@H](CCCCN)C(=O)N[C@H](C(=O)N[C@@H](CCC(N)=O)C(=O)NCC(=O)N[C@@H](Cc1ccccc1)C(=O)N[C@H](C(=O)N1CCC[C@H]1C(=O)N[C@@H](CCCCN)C(=O)N[C@@H](CC(C)C)C(=O)O)C(C)C)[C@@H](C)CC has a lethal concentration of 1.77 µM (inhibition zone; CIP. J14b).
For CCCC(=O)NCC(=O)N[C@@H](CC(C)C)C(=O)N[C@@H](CC(C)C)C(=O)N[C@@H](CCCCN)C(=O)N[C@@H](CCCNC(=N)N)C(=O)N[C@H](C(=O)N[C@@H](CCCCN)C(=O)N[C@H](C(=O)N[C@@H](CC(C)C)C(=O)N[C@@H](CC(C)C)C(=O)NCCCC[C@H](NC(=O)[C@H](CC(C)C)NC(=O)[C@H](CC(C)C)NC(=O)[C@@H](NC(=O)[C@H](CCCCN)NC(=O)[C@@H](NC(=O)[C@H](CCCNC(=N)N)NC(=O)[C@H](CCCCN)NC(=O)[C@H](CC(C)C)NC(=O)[C@H](CC(C)C)NC(=O)CNC(=O)CCC)[C@@H](C)CC)[C@@H](C)O)C(=O)NCCCC[C@H](NC(=O)[C@H](CCCCNC(=O)[C@H](CC(C)C)NC(=O)[C@H](CC(C)C)NC(=O)[C@@H](NC(=O)[C@H](CCCCN)NC(=O)[C@@H](NC(=O)[C@H](CCCNC(=N)N)NC(=O)[C@H](CCCCN)NC(=O)[C@H](CC(C)C)NC(=O)[C@H](CC(C)C)NC(=O)CNC(=O)CCC)[C@@H](C)CC)[C@@H](C)O)NC(=O)[C@H](CC(C)C)NC(=O)[C@H](CC(C)C)NC(=O)[C@@H](NC(=O)[C@H](CCCCN)NC(=O)[C@@H](NC(=O)[C@H](CCCNC(=N)N)NC(=O)[C@H](CCCCN)NC(=O)[C@H](CC(C)C)NC(=O)[C@H](CC(C)C)NC(=O)CNC(=O)CCC)[C@@H](C)CC)[C@@H](C)O)C(N)=O)[C@@H](C)O)[C@@H](C)CC, the FIC index was 0.25 (checkerboard; ATCC 25922; together with: gentamicin).
For O=C(CSc1nc2ccccc2[nH]1)N/N=C/c1cc2c(s1)CCCC2, the growth inhibition was 73% (TolC; 50 µM).
C[C@@](O)(C(F)F)[C@H](NC(=O)c1ccc(C#CC#CC2CC2)cc1)C(=O)NO — result for “MIC fold increase”: 9 (broth microdilution; W3110; together with: mouse plasma 50%; relative to: CAMHB alone).
CCCCCCCC(=O)NCC(=O)N[C@@H](CC(C)C)C(=O)N[C@@H](CC(C)C)C(=O)N[C@@H](CCCCN)C(=O)N[C@@H](CCCNC(=N)N)C(=O)N[C@H](C(=O)N[C@@H](CCCCN)C(=O)N[C@H](C(=O)N[C@@H](CC(C)C)C(=O)N[C@@H](CC(C)C)C(N)=O)[C@@H](C)O)[C@@H](C)CC has an FIC index of 0.562 (checkerboard; ATCC 25922; together with: rifampicin).
CC[C@H](C)[C@H](NC(=O)[C@H](CCCCN)NC(=O)[C@H](CCCCN)NC(=O)[C@H](CC(C)C)NC(=O)[C@H](CCCCN)NC(=O)[C@H](CCC(=O)O)NC(=O)[C@H](CCCCN)NC(=O)[C@@H](NC(=O)[C@H](CCCCN)NC(=O)[C@H](CC(N)=O)NC(=O)[C@H](CCCNC(=N)N)NC(=O)[C@H](Cc1ccccc1)NC(=O)[C@H](CCCCN)NC(=O)[C@H](CCCNC(=N)N)NC(=O)[C@H](CC(C)C)NC(=O)[C@H](CCCNC(=N)N)NC(=O)[C@H](CCCCN)NC(=O)[C@H](CCCNC(=N)N)NC(=O)[C@H](CC(C)C)NC(=O)CN)[C@@H](C)CC)C(=O)NCC(=O)N[C@@H](CCC(N)=O)C(=O)N[C@@H](CCCCN)C(=O)N[C@H](C(=O)N[C@@H](CCC(N)=O)C(=O)NCC(=O)N[C@@H](Cc1ccccc1)C(=O)N[C@H](C(=O)N1CCC[C@H]1C(=O)N[C@@H](CCCCN)C(=O)N[C@@H](CC(C)C)C(=O)N[C@@H](C)C(=O)N1CCC[C@H]1C(=O)N[C@@H](CCCNC(=N)N)C(=O)N[C@H](C(=O)N[C@@H](CC(=O)O)C(=O)N[C@@H](Cc1ccc(O)cc1)C(=O)O)[C@@H](C)O)C(C)C)[C@@H](C)CC has a lethal concentration of 1.52 µM (inhibition zone; JM109).
With CCCC(=O)NCC(=O)N[C@@H](CC(C)C)C(=O)N[C@@H](CC(C)C)C(=O)N[C@@H](CCCCN)C(=O)N[C@@H](CCCNC(=N)N)C(=O)N[C@H](C(=O)N[C@@H](CCCCN)C(=O)N[C@H](C(=O)N[C@@H](CC(C)C)C(=O)N[C@@H](CC(C)C)C(=O)NCCCC[C@H](NC(=O)[C@H](CCCCNC(=O)[C@H](CC(C)C)NC(=O)[C@H](CC(C)C)NC(=O)[C@@H](NC(=O)[C@H](CCCCN)NC(=O)[C@@H](NC(=O)[C@H](CCCNC(=N)N)NC(=O)[C@H](CCCCN)NC(=O)[C@H](CC(C)C)NC(=O)[C@H](CC(C)C)NC(=O)CNC(=O)CCC)[C@@H](C)CC)[C@@H](C)O)NC(=O)[C@H](CC(C)C)NC(=O)[C@H](CC(C)C)NC(=O)[C@@H](NC(=O)[C@H](CCCCN)NC(=O)[C@@H](NC(=O)[C@H](CCCNC(=N)N)NC(=O)[C@H](CCCCN)NC(=O)[C@H](CC(C)C)NC(=O)[C@H](CC(C)C)NC(=O)CNC(=O)CCC)[C@@H](C)CC)[C@@H](C)O)C(N)=O)[C@@H](C)O)[C@@H](C)CC the FIC index was 0.562 (checkerboard; ATCC 25922; together with: gentamicin).
Under “MIC of ceftazidime”, C[C@]1(COC(=O)c2ccccc2O)[C@H](C(=O)O)N2C(=O)/C(=C/c3ccccn3)[C@H]2S1(=O)=O is recorded as 64 µg/mL (broth microdilution; MG1655 expressing CTX-M-2; 16 µg/mL).
CC[C@H](C)[C@H](NC(=O)[C@H](CO)NC(=O)[C@H](CO)NC(=O)[C@H](Cc1ccccc1)NC(=O)CN)C(=O)N[C@@H](Cc1ccccc1)C(=O)N[C@@H](CCCNC(=N)N)C(N)=O gave an MBC of over 128 µM (ATCC 8739; together with: 1 mM MgCl2).
For CC[C@H](C)[C@@H]1NC(=O)[C@H](CCC(N)=O)NC(=O)[C@H](CCCCN)NC(=O)[C@H](Cc2ccc(O)cc2)NC(=O)[C@H](CCCNC(=N)N)NC(=O)[C@H](CCCNC(=N)N)NC(=O)[C@@H]2CCCN2C(=O)[C@@H](NC(=O)[C@@H](N)Cc2ccccc2)CSSC[C@@H](C(=O)N[C@@H](CCCCN)C(=O)O)NC(=O)[C@H](CCCCN)NC(=O)[C@H]([C@@H](C)O)NC(=O)CNC(=O)[C@@H]2CCCN2C(=O)[C@H](CC(C)C)NC(=O)CNC(=O)[C@H]([C@@H](C)O)NC(=O)CNC1=O, antibacterial activity read “inhibited” (K12 MG1655; MBC, 2 h, pH 7.4, 37 °C, together with: LPS Escherichia coli 026:B6, peptide:LPS 1:1 w/w).
C[C@@H](O)[C@H](N)C(=O)N[C@@H](CS)C(=O)N[C@@H](Cc1ccc(O)cc1)C(=O)N[C@@H](CS)C(=O)N[C@@H](CCCNC(=N)N)C(=O)N[C@H](C(=O)NCC(N)=O)[C@@H](C)O gave an EC50 of 28.2 ± 3.27 µM (bactericidal activity, virtual colony count; ATCC 25922; 2 h).
CC[C@H](C)[C@H](NC(=O)[C@@H](CCCNC(=N)N)NC(=O)[C@H](CCCNC(=N)N)NC(=O)[C@@H]1CCCN1C(=O)[C@@H]1CCCN1C(=O)[C@H](CCCNC(=N)N)NC(=O)[C@@H]1CCCN1C(=O)[C@H](CCCNC(=N)N)NC(=O)[C@@H]1CCCN1C(=O)[C@H](CC(C)C)NC(=O)[C@H](Cc1ccc(O)cc1)NC(=O)[C@@H]1CCCN1C(=O)[C@@H]1CCCN1C(=O)[C@H](CCCCN)NC(=O)[C@H](CC(=O)O)NC(=O)[C@@H](N)C(C)C)C(=O)N[C@@H](Cc1ccc(O)cc1)C(=O)N[C@@H](CC(N)=O)C(=O)N[C@H](CCCNC(=N)N)C(=O)N[C@@H](CC(N)=O)C(=O)NCC(=O)N1CCC[C@H]1C(=O)N[C@@H](CCCNC(=N)N)C(=O)N[C@@H](CC1CCCCC1)C(=O)N[C@@H](Cc1ccccc1)C(=O)N[C@@H](CCC(N)=O)C(=O)N[C@@H](CC(C)C)C(=O)N[C@@H](CC(=O)O)C(=O)O gave an MBC of 2 µg/mL (broth microdilution; D22).

Excerpt of the above:
CC[C@H](C)[C@H](NC(=O)[C@@H](CCCNC(=N)N)NC(=O)[C@H](CCCNC(=N)N)NC(=O)[C@@H]1CCCN1C(=O)[C@@H]1CCCN1C(=O)[C@H](CCCNC(=N)N)NC(=O)[C@@H]1CCCN1C(=O)[C@H](CCCNC(=N)N)NC(=O)[C@@H]1CCCN1C(=O)[C@H](CC(C)C)NC(=O)[C@H](Cc1ccc(O)cc1)NC(=O)[C@@H]1CCCN1C(=O)[C@@H]1CCCN1C(=O)[C@H](CCCCN)NC(=O)[C@H](CC(=O)O)NC(=O)[C@@H](N)C(C)C)C(=O)N[C@@H](Cc1ccc(O)cc1)C(=O)N[C@@H](CC(N)=O)C(=O)N[C@H](CCCNC(=N)N)C(=O)N[C@@H](CC(N)=O)C(=O)NCC(=O)N1CCC[C@H]1C(=O)N[C@@H](CCCNC(=N)N)C(=O)N[C@@H](CC1CCCCC1)C(=O)N[C@@H](Cc1ccccc1)C(=O)N[C@@H](CCC(N)=O)C(=O)N[C@@H](CC(C)C)C(=O)N[C@@H](CC(=O)O)C(=O)O gave an MBC of 2 µg/mL (broth microdilution; D22).
C[C@@H](O)[C@H](N)C(=O)N[C@@H](CS)C(=O)N[C@@H](Cc1ccc(O)cc1)C(=O)N[C@@H](CS)C(=O)N[C@@H](CCCNC(=N)N)C(=O)N[C@H](C(=O)NCC(N)=O)[C@@H](C)O gave an EC50 of 28.2 ± 3.27 µM (bactericidal activity, virtual colony count; ATCC 25922; 2 h).
